Experimental data of several laboratories.
± marks the error that the study gave.
TXK: Tyrosine-protein kinase TXK (TXK, Homo sapiens, UniProt P42681)
UniProt P42681, sequence (whole entry, looked up): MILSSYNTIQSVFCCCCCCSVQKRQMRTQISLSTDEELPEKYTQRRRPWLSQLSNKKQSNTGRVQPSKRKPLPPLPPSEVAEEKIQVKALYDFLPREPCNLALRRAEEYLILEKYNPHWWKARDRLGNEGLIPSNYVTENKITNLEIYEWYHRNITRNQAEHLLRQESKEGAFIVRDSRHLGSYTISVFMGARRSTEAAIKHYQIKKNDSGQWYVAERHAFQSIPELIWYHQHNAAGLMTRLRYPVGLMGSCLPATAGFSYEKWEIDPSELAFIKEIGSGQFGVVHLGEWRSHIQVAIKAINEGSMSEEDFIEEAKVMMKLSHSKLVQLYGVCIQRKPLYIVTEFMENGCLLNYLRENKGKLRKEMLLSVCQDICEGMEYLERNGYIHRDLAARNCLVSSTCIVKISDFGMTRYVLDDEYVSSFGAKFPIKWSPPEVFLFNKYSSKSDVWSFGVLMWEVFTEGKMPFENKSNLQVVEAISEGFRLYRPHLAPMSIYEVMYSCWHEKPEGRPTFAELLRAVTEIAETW
HIPK1: Homeodomain-interacting protein kinase 1 (HIPK1, Homo sapiens, UniProt Q86Z02)
UniProt Q86Z02, sequence (whole entry, looked up): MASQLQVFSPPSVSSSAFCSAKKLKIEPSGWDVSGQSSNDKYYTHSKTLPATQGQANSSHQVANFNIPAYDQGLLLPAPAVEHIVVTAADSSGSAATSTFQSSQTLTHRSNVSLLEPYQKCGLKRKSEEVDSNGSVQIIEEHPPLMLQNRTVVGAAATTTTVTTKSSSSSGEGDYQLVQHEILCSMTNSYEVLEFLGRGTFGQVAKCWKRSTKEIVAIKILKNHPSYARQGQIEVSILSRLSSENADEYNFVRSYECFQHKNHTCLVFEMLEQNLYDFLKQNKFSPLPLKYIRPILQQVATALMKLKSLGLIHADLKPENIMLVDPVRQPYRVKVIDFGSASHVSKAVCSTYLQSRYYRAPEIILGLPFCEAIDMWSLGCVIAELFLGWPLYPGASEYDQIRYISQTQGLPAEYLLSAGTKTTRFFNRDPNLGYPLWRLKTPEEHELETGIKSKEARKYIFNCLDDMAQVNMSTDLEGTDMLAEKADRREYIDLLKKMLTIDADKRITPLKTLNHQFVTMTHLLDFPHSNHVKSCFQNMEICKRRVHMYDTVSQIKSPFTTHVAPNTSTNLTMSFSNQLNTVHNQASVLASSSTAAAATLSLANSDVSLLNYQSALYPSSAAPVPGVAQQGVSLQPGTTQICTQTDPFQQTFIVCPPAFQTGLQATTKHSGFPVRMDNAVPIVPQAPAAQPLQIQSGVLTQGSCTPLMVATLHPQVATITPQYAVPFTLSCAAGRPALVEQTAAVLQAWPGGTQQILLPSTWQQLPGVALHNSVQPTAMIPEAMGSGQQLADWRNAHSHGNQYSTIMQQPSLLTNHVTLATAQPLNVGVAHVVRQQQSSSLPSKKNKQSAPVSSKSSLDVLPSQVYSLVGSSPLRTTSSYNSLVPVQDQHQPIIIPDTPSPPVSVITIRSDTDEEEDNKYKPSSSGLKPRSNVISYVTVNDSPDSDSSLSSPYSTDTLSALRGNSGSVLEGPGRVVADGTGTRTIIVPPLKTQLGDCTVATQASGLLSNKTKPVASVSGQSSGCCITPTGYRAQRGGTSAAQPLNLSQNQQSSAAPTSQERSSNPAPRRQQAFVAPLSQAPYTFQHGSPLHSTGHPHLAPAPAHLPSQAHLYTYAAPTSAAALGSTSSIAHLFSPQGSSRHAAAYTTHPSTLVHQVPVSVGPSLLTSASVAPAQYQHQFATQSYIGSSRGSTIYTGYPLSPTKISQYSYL
RET: Proto-oncogene tyrosine-protein kinase receptor Ret (RET, Homo sapiens, UniProt P07949)
UniProt P07949, sequence (whole entry, looked up): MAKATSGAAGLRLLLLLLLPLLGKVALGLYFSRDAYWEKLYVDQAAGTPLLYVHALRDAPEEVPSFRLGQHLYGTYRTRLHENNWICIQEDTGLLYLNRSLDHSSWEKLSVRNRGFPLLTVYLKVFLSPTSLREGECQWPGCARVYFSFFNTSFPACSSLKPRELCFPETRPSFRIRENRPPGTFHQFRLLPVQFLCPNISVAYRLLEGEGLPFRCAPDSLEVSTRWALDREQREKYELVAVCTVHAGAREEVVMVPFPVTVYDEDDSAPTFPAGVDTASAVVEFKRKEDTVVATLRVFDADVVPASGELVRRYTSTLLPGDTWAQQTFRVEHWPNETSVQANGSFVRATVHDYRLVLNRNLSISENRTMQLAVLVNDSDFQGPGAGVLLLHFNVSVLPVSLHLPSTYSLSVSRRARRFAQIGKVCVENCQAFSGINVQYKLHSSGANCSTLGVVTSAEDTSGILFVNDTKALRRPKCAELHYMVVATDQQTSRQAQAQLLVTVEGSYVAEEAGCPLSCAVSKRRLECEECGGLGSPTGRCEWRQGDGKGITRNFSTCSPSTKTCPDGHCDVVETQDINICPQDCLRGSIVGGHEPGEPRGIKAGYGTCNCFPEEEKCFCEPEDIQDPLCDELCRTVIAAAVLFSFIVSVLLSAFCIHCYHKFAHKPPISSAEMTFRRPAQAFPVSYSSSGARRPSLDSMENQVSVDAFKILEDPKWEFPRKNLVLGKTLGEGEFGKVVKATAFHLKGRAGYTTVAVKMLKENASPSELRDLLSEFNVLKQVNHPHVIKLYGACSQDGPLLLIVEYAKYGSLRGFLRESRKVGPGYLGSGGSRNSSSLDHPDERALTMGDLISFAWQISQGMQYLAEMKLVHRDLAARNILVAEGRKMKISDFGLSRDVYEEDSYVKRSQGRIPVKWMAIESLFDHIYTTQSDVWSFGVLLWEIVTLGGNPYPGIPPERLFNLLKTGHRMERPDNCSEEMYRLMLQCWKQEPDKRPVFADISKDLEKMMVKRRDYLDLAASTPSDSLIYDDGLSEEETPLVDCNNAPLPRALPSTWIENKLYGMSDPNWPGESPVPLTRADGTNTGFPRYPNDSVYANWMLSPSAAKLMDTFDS
RPS6KB1: Ribosomal protein S6 kinase beta-1 (RPS6KB1, Homo sapiens, UniProt P23443)
UniProt P23443, sequence (whole entry, looked up): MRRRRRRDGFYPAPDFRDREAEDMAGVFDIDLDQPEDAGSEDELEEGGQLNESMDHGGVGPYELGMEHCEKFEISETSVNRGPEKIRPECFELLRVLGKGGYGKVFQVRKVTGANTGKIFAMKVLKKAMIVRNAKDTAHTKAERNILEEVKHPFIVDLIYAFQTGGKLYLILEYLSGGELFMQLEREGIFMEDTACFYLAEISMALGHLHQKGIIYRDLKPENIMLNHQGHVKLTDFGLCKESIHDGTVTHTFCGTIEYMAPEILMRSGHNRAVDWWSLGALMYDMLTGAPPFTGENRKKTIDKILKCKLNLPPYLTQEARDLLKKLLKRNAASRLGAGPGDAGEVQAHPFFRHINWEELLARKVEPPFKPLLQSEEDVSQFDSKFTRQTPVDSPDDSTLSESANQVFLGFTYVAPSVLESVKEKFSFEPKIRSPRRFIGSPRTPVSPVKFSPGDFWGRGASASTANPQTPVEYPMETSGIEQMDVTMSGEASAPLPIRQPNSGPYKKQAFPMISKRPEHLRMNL
UniProt O75747, sequence (whole entry, looked up): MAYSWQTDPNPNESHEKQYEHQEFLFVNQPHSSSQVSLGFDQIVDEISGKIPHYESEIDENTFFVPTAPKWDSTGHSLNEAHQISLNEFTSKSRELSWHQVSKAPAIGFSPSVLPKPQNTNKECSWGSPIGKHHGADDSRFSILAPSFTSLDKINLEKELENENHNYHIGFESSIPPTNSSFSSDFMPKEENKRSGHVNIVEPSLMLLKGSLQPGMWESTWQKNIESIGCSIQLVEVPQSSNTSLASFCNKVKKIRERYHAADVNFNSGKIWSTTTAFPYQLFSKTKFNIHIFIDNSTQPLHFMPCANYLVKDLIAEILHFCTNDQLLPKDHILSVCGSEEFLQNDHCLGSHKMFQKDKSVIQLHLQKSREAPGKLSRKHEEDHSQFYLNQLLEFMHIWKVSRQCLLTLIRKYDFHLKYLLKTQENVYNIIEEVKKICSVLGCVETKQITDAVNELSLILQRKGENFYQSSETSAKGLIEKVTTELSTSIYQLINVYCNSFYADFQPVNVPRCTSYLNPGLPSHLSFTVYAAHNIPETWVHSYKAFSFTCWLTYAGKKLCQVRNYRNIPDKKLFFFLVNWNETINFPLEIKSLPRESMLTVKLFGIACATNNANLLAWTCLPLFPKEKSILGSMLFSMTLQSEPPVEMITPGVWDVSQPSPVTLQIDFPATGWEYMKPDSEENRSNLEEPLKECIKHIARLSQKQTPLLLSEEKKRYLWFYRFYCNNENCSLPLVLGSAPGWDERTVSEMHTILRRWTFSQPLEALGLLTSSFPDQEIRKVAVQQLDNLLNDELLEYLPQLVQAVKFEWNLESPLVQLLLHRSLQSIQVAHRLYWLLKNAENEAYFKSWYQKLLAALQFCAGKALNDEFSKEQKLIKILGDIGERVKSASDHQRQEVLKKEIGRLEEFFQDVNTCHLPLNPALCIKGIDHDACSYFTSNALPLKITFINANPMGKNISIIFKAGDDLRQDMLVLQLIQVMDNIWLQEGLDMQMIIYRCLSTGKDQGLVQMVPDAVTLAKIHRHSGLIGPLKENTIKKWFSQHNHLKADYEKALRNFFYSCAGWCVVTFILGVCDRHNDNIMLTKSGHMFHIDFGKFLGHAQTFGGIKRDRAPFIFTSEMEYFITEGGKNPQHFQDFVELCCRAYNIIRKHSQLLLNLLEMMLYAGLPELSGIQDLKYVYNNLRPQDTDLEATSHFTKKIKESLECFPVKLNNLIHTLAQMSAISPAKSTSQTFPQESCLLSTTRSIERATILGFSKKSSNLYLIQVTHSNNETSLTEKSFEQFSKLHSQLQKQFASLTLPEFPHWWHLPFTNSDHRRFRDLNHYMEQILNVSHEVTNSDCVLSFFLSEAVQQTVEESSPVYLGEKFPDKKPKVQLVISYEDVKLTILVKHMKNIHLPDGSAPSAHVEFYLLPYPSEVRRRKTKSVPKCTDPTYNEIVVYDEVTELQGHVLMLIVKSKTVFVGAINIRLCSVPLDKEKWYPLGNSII

COc1cc(N2CCN(C)CC2)ccc1Nc1nc(N)n(C(=O)NCc2ccccc2S(=O)(=O)C(C)C)n1
remaining activity (MAP3K1 (Homo sapiens, UniProt Q13233); enzyme activity; 10 µM; reference: control): 31%

COc1ccc(C(=O)CSc2nc3ccc([N+](=O)[O-])cc3s2)cc1
remaining activity (Threonine--tRNA ligase (thrS, Staphylococcus aureus, UniProt Q2FXP7); aminoacylation; 100 µM): 11.5%

COc1ccc(F)cc1C(=O)NCc1ccc(-c2nn([C@@H](C)C(F)(F)F)c(N)c2C(N)=O)cc1
remaining activity (TXK; kinase activity, inhibitor, HotSpot radiometric; 100 nM, with: ATP 10 µM): 68.4 ± 0.4%

CN(C)CC#Cc1ccc2[nH]c3c(c2c1)-c1nc(N)ncc1CCC3
remaining activity (HIPK1; kinase activity, inhibitor, radiometric; 1 µM, with: ATP at Km): 88%

O=C(CCCCCCC(=O)Nc1ccc([C@H]2O[C@@H](CSc3nc(-c4ccccc4)c(-c4ccccc4)o3)C[C@@H](c3ccc(CO)cc3)O2)cc1)NO
viability (HBL-1; 0.1 µM, 120 h): 124%

C[C@H]1[C@H](OC(=O)CCC(=O)O)O[C@@H]2O[C@@]3(C)CC[C@H]4[C@H](C)CC[C@@H]1[C@@]24OO3
remaining activity (Non-structural polyprotein pORF1, helicase domain (Hepatitis E virus genotype 1, UniProt P33424); ATPase activity, inhibitor, colorimetric; 9.7 µM; reference: untreated): 82.9%

COc1cc(-c2cncc3c2CN(C)Cc2cc(N4CCNCC4)ccc2-3)cc(OC)c1OC
remaining activity (PIK3C2G (Homo sapiens, UniProt O75747); kinase activity; 1 µM, human enzyme, with: ATP 10 µM; reference: DMSO control): 102%

COc1cc(F)ccc1-c1ncnc(Nc2cccc(C[S@](C)(=N)=O)c2)n1
remaining activity (PASK (Homo sapiens, UniProt Q96RG2); kinase activity; 10 µM, with: 10 µM ATP): 89%

C=CC(=O)N1CCC[C@@H](n2nc(-c3ccc(Oc4ccccc4)cc3)c3c(N)ncnc32)C1
remaining activity (RET; kinase activity, inhibitor, HotSpot radiometric; 100 nM, with: ATP 10 µM): 66.9 ± 1.5%

COc1cc(Nc2ncc3c(n2)-c2ccc(Cl)cc2C(c2c(F)cccc2OC)=NC3)ccc1C(=O)O
remaining activity (EPHB1; kinase activity; 1 µM): 17%

Cc1cc(NC(=O)c2cccc(NC(=O)/C=C/CN(C)C)c2)ccc1Nc1nccc(-c2cccnc2)n1
remaining activity (MAPK8 (Homo sapiens, UniProt P45983); enzyme activity, inhibitor; 4.938 µM, 18 h, unit not given, with: GSH 10 mM pre-incubation; reference: vehicle): 0.531

C[C@@H](Oc1ccc(S(C)(=O)=O)cc1C(=O)N1C[C@@H]2C[C@]2(c2cc(C(F)(F)F)on2)C1)C(F)(F)F
remaining activity (SLC6A9 (Homo sapiens, UniProt P48067, L476T); glycine uptake, inhibitor, [3H]glycine uptake; 0.001 µM, L422T mutant, log concentration 1, with: [3H]glycine; reference: no inhibitor): 94.3%

FC(F)(F)Oc1cccc(-c2cnc3ccc(-c4ccncc4)nn23)c1
remaining activity (Serine/threonine-protein kinase Pink1, mitochondrial (Pink1, Tribolium castaneum, UniProt D6WMX4); 5 µM): 78%

COc1cc(N2CCN(C)CC2)ccc1Nc1nc(N)n(C(=S)NCc2c(Cl)cccc2Cl)n1
remaining activity (HIPK1; enzyme activity; 10 µM; reference: control): 2.2%

COc1cc(Nc2cnc(C#N)c(O[C@H](C)CN(C)C)n2)ncc1-c1cnn(C)c1
remaining activity (human phosphorylase kinase; radiometric; 1 µM): 86%

Cc1cc(Nc2cc(N3CCN(C)CC3)nc(Sc3ccc(NC(=O)C4CC4)cc3)n2)[nH]n1
remaining activity (AXL (Homo sapiens, UniProt P30530); kinase activity, KinaseProfiler; 0.03 µM, species human; reference: control): 76%

O=C(O)c1ccc(Nc2ncc3c(n2)-c2ccc(Cl)cc2C(c2c(F)cccc2F)=NC3)cc1
remaining activity (LKB1(h); kinase activity; 1 µM): 101%

CC(C)C(=O)Nc1n[nH]c2cc(-c3cccc(NS(=O)(=O)C4CC4)c3)ccc12
remaining activity (PIP5K1C (Homo sapiens, UniProt O60331); ADP-Glo; 1.11 µM; reference: DMSO): 82.7%

O=C(NC1CCC1)c1ccc2nc(-c3cccc(NS(=O)(=O)NCCN4CCCCC4)c3)cn2c1
remaining activity (PIM1 (Homo sapiens, UniProt P11309); enzyme activity; 10 µM): 100%

O=C1NC(=O)/C(=C/c2ccc(-c3ccc(F)cc3O)o2)S1
remaining activity (RPS6KB1; enzyme activity; 10 µM): 43%

CC(C)OCCn1c(=S)[nH]c(=O)c2[nH]ccc21
remaining activity (Myeloperoxidase (MPO, Homo sapiens, UniProt P05164); LDL lipid peroxidation, inhibitor, cholesteryl ester hydroperoxide; 1.111 µM): 35.3%

C=CC(=O)N1CCC[C@@H](n2nc(-c3ccc(Oc4ccccc4)cc3)c3c(N)ncnc32)C1
remaining activity (RET; 0.1 µM): 141%

CNc1ncc2c(/C=C/C(=O)N3CCC(OC)CC3)nn(Cc3cccc(C(F)(F)F)c3)c2n1
remaining activity (RPS6KB1; kinase activity, inhibitor; 1 µM; reference: untreated control): 97%

C=CC(=O)N1CCC([C@@H]2CCNc3c(C(N)=O)c(-c4ccc(Oc5ccccc5)cc4)nn32)CC1
remaining activity (TXK; kinase activity, inhibitor, HotSpot radiometric; 100 nM, with: ATP 10 µM): 0.4 ± 0.1%

CCCCc1nc2cc(/C=C/C(=O)NO)ccc2n1CCN(CC)CC
viability (HBL-1; 0.5 µM, 120 h): 1.95%

Repeated from above:
O=C(O)c1ccc(Nc2ncc3c(n2)-c2ccc(Cl)cc2C(c2c(F)cccc2F)=NC3)cc1
remaining activity (LKB1(h); kinase activity; 1 µM): 101%

CC(C)C(=O)Nc1n[nH]c2cc(-c3cccc(NS(=O)(=O)C4CC4)c3)ccc12
remaining activity (PIP5K1C (Homo sapiens, UniProt O60331); ADP-Glo; 1.11 µM; reference: DMSO): 82.7%

O=C(NC1CCC1)c1ccc2nc(-c3cccc(NS(=O)(=O)NCCN4CCCCC4)c3)cn2c1
remaining activity (PIM1 (Homo sapiens, UniProt P11309); enzyme activity; 10 µM): 100%
